Published values collected from several papers.
Numbered parts are unrelated; each lists some results of a single study.
Chain of UniProt P62344 (whole entry, looked up): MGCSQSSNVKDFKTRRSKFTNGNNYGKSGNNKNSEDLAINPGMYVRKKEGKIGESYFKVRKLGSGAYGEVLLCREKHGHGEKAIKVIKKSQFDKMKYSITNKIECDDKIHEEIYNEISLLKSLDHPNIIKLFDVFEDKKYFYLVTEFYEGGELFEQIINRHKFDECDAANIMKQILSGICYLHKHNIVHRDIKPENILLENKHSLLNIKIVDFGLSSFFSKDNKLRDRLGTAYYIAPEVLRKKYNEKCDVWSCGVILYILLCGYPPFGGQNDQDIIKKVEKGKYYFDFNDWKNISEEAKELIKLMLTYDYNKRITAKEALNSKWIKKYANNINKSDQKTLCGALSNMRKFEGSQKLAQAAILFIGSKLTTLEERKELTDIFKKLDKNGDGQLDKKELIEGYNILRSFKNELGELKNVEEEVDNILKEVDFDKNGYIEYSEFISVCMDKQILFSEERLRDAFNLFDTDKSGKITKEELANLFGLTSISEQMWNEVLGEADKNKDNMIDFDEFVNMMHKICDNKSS
Chain of UniProt P41143 (whole entry, looked up): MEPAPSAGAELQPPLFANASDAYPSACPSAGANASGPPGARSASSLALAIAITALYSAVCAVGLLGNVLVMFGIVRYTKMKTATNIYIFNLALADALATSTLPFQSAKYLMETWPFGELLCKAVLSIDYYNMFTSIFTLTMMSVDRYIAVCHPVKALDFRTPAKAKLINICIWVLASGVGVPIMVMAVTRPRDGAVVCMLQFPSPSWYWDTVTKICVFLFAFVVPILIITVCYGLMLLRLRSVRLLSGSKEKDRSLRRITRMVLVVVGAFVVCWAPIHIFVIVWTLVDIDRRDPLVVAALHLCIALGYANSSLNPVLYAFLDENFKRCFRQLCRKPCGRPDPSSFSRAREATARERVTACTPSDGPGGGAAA
Chain of UniProt P9WI81 (whole entry, looked up): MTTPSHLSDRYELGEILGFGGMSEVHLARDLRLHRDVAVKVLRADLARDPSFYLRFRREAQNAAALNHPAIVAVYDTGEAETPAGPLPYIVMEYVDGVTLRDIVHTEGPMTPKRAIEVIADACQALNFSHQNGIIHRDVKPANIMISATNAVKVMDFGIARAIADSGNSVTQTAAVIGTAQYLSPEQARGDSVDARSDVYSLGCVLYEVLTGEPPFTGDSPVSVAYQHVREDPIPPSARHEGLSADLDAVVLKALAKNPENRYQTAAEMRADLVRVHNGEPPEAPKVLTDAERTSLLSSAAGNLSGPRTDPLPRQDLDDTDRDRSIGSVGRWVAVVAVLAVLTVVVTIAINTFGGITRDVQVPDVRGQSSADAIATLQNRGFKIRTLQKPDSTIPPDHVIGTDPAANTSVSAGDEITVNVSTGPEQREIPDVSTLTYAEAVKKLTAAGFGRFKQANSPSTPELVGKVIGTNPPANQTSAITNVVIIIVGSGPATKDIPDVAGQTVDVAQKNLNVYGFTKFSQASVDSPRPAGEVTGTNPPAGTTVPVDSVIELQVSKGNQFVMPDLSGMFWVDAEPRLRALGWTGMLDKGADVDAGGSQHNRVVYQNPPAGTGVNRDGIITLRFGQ

Series 1
Compound: CNC(=O)c1ccc(-c2cnn3ccc(C(=O)N(C)c4ccc(Cl)c(C(=O)OC)c4)cc23)cc1
Target: Phosphatidylinositol 4-kinase (Cryptosporidium parvum, UniProt Q5CVD3)
Observed: enzyme activity
Action: inhibitor
Method: ADP-Glo
setting | inhibition [%]
3.05e-06 µM | 41.4
0.000247 µM | 99.8
2.74e-05 µM | 96.7

Series 2
Cell line: mouse MPNST tumor cells
Method: high-content nuclear imaging
Item: cell number
Tested at: 10 µM
Time: 12 h
Setting: mean of 2 replicates
Baseline: plate mean
Direction: higher = more cells
Structure (SMILES) | nuclei count [z-score]
CCCN(CCC)[C@@H]1CCc2cccc(O)c2C1 | 0.719
CC1=NN=C(c2ccc(N)cc2)c2cc3c(cc2C1)OCO3 | 1.11
C[C@]12CC[C@H]3[C@@H](CCC4=CC(=O)CC[C@@H]43)[C@@H]1CC[C@@H]2O | 1.57

Further values, each from its own experiment
Compound | target or system | assay | test system | setting | quantity | value
Cc1c(C(=O)O)cc(-c2ccc(C3CCNCC3)cc2)c2ccc(-c3ccc(C(F)(F)F)cc3)cc12 | pknB (Mycobacterium tuberculosis, UniProt P9WI81) | cell-free assay, competition with immobilised ligand | – | 1 µM | remaining binding | 100%
COc1ccc(NC=C2C(=O)NC(=O)N(c3ccc(C)cc3)C2=O)cc1 | – | AlphaScreen signal, AlphaScreen counter screen | His6 peptide without bromodomain | 50 µM, assay interference check | inhibition | -2.2%
CCCCN(CCCC)C(=O)CN1C[C@@H](c2cc(OC)c3c(c2)OCO3)[C@H](C(=O)O)[C@H]1CC(C)(C)CCC | OPRD1 (Homo sapiens, UniProt P41143) | binding, radioligand binding | – | 10 µM | inhibition | 41.2%
Cn1cc(C2=C(c3cn(C4CCN(Cc5ccccn5)CC4)c4ccccc34)C(=O)NC2=O)c2ccccc21 | – | AlphaScreen signal, AlphaScreen counter screen | His6 peptide without bromodomain | 50 µM, assay interference check | inhibition | 80.3%
COc1cccc(CNC(=O)c2nc3scc(COCc4ccc(C(=O)O)cc4)c3c(=O)[nH]2)c1 | CDPK1 (Plasmodium falciparum, UniProt P62344) | cell-free assay, competition with immobilised ligand | – | 1 µM | remaining binding | 72.7%
CN1C(=O)C(=CNc2cccc(Cl)c2)C(=O)NC1=S | – | AlphaScreen signal, AlphaScreen counter screen | His6 peptide without bromodomain | 50 µM, assay interference check | inhibition | 13.2%

A few entries again (further values, each from its own experiment):
Compound | target or system | assay | test system | setting | quantity | value
COc1ccc(NC=C2C(=O)NC(=O)N(c3ccc(C)cc3)C2=O)cc1 | – | AlphaScreen signal, AlphaScreen counter screen | His6 peptide without bromodomain | 50 µM, assay interference check | inhibition | -2.2%
